Assay results from different studies.
Each line is one published result; not all experiments were run side by side.

CCN(CCO)CCCC(C)Nc1ccnc2cc(Cl)ccc12 (stereo not drawn)
patients with adverse event (human, newly diagnosed glioblastoma; oral, 800 mg/dose, maculopapular rash grade 2, with RT and TMZ): 33%

COc1cc2c(Oc3ccc4[nH]c(C)cc4c3F)ccnc2cc1OCC1(N)CC1
grade 1 or 2 Rash (paediatric recurrent refractory sarcoma; 8 mg/kg): 20%

CCCCCCCCCCCCCCCC(=O)N[C@@H](CCC(=O)NCCCC[C@H](NC(=O)[C@H](CC(=O)O)NC(=O)[C@H](CO)NC(=O)[C@@H](NC(=O)[C@H](Cc1ccccc1)NC(=O)[C@@H](NC(=O)CNC(=O)[C@H](CCC(N)=O)NC(=O)[C@H](CO)NC(=O)[C@@H](N)Cc1c[nH]cn1)[C@@H](C)O)[C@@H](C)O)C(=O)N[C@@H](CO)C(=O)N[C@@H](CCC(=O)O)C(=O)N[C@@H](Cc1ccc(O)cc1)C(=O)N[C@@H](CC(C)C)C(=O)N[C@@H](CC(=O)O)C(=O)N[C@@H](CO)C(=O)N[C@@H](CCC(=O)O)C(=O)N[C@@H](CCCNC(=N)N)C(=O)N[C@@H](C)C(=O)N[C@@H](CCCNC(=N)N)C(=O)N[C@@H](CC(=O)O)C(=O)N[C@@H](Cc1ccccc1)C(=O)N[C@H](C(=O)N[C@@H](C)C(=O)N[C@@H](Cc1c[nH]c2ccccc12)C(=O)N[C@@H](CC(C)C)C(=O)N[C@@H](CCC(=O)O)C(=O)N[C@@H](C)C(=O)NCC(=O)NCC(=O)O)C(C)C)C(=O)O
treatment-related adverse events (item: Tachycardia; humans all renal groups; subcutaneous, 100 µg single dose): 5.4%

CC[C@H](C)CCCCC(=O)N[C@@H](CCN)C(=O)N[C@H](C(=O)N[C@@H](CCN)C(=O)N[C@H]1CCNC(=O)[C@H]([C@@H](C)O)NC(=O)[C@H](CCN)NC(=O)[C@H](CCN)NC(=O)[C@H](CC(C)C)NC(=O)[C@@H](Cc2ccccc2)NC(=O)[C@H](CCN)NC1=O)[C@@H](C)O
Cmax steady state (critically ill patients, non-AKI, plasma; intravenous, 150 mg/day, median): 6600 ng/mL

CC(C)Nc1ccnc(Nc2cccc(-c3cccnc3)c2)n1
blood chemistry (item: Calcium; mouse, blood; intraperitoneal, 5 mg/kg): 10.1 mg/dL

CN1CCN(S(=O)(=O)c2cc([N+](=O)[O-])ccc2N(CCOS(C)(=O)=O)CCOS(C)(=O)=O)CC1
phosphate (naive NOD/SCID mice, pooled blood; intraperitoneal, 12.5 mg/kg, week 4): 2.1 mmol/L

COc1c(C)cnc(Cn2cc(C#CCCOP(=O)(O)O)c3c(Cl)nc(N)nc32)c1C
plasma half-life (human, advanced solid tumours; intravenous, range over all dose levels): 0.1 to 1.9 h

Cn1cc(-c2nc(N[C@@H]3CCCC[C@@H]3N)c(F)c3c2C(=O)NC3)cn1
hemorrhagic adverse events (item: Gastrointestinal haemorrhage; patients with relapsed or refractory AML; oral, 160 mg once daily): 11%

C[C@@H](NC(=O)N1C(=O)[C@H](Cc2ccnc(N)c2)[C@H]1C(=O)O)C1CCCCC1
urine leukocyte esterase positive (healthy Chinese adult volunteers; continuous intravenous infusion, 2.25 mg/kg/h, 5.0 days, CTCAE 5.0, all doses): 0%

C[C@]1(CO)Cc2ncn(-c3ccc(C#N)c(Cl)c3)c2C(=O)O1
serum potassium elevation incidence (item: potassium, serum, ≥5.0 mmol/L; human; European single ascending dose): 8.3%

COc1ccc([C@@H](O)c2cc(-c3ncnc4cc(N5CCOCC5)ccc34)c(F)cc2Cl)nn1
dehydration incidence (patients, advanced solid tumours; oral, 300 mg twice daily, treatment-emergent, with: avelumab): 4%

O=C(Nc1ccccc1)C1CCN(C(=O)Oc2cccnc2)CC1
subjects with decreased appetite (adverse event reporting; healthy women; oral, 60 mg, 7 days): 7.1%

Cn1c(-c2ccc(C(N)=O)cc2F)nnc1C(C)(C)Oc1c(F)cc(Cl)cc1F
musculoskeletal disorder TEAE (human; oral, 30 mg, single ascending dose): 16.7%

Cc1cccc(C)c1NC(=O)C1CCCCN1 (stereo not drawn)
myotoxicity score (haematoxylin-eosin histology; rat, muscle around sciatic nerve; sciatic nerve injection, 30 mM, 4 days, median, scale 0 to 6; direction not given): 1

CCc1ccc(CC/C=C/c2ccc3c(c2)C(=O)CC3)cc1
Neutrophil percentage (Sprague-Dawley rat, female; oral, 120 mg/kg/day, 14 days): 13.9%

Some of these lines once more:
CN1CCN(S(=O)(=O)c2cc([N+](=O)[O-])ccc2N(CCOS(C)(=O)=O)CCOS(C)(=O)=O)CC1
phosphate (naive NOD/SCID mice, pooled blood; intraperitoneal, 12.5 mg/kg, week 4): 2.1 mmol/L
